Results collected from several papers.
Protocols differ between the studies behind these lines. “And” joins repeats or separate records; there may be more than shown. Numbers after ± are the reported error.

With `C=C(NC(=O)c1csc(-c2nc3c(cc2O)-c2nc(cs2)C(=O)NC(C(C)O)C(=O)NC(=C(C)OC)c2nc(cs2)C(=O)NC2c4nc(cs4)C(=O)NC(COC(=O)c4c5c6c(cccc6n4O)COC(=O)C(OC4CC(C)(O)C(N(C)C)C(C)O4)C2OC5)c2nc-3cs2)n1)C(N)=O` (centres unmarked) the MRT(0-last) was 1.6 h (cynomolgus monkey, male, plasma; intravenous infusion, 3 mg/kg multiple doses, day 7).
With `CC(=O)N([O-])CCCCCNC(=O)CCC(=O)N([O-])CCCCCNC(=O)CCC(=O)N([O-])CCCCCN.[89Zr+4]` the intact complex was 78.4 ± 2% (mouse plasma; 7 d, 37 °C).
`CCCCN1C(=O)c2cccc3c(NCCCCCCCCCCN4CCOCC4)ccc(c23)C1=O` gave an absorption maximum of 443 nm (methanol).
For `C=CC(=O)Nc1cc(Nc2nccc(-c3c[nH]c4ccccc34)n2)c(OC)cc1N(C)CCN(C)C`, the recovery was 91.3% (human plasma; 5 h, storage stability, low QC sample).
The absorption maximum of `CCCCN1C(=O)c2cccc3c(NCCN4CCOCC4)ccc(c23)C1=O` is reported as 438 nm (DMF).
For `COc1ccc(Nc2nc(Nc3ccc(OCCOCCOCC[18F])cc3)ncc2Br)cc1`, the uptake ratio was 1.54 (ICR mice, S180 tumour; intravenous, 370 kBq, 60 min; baseline: tumour over muscle).
`O=C(Nc1cnccc1-c1ccc([18F])cc1)c1ccnc(NC(=O)C2CC2)c1` has an SUV of 0.3 (ex vivo gamma counting; FVB/NJ mice, both sexes, thalamus; intravenous, 120 min, mean, P-gp inhibitor pretreatment, added: tariquidar 15 mg/kg iv).
`O=C([O-])CN1CCN(CC(=O)[O-])CCN(CC(CCCc2ccccc2[N+](=O)[O-])N(CC(=O)[O-])CC(=O)[O-])CC1.[90Y+3]` (centres unmarked): “intact radiolabelled complex” 99.8 ± 0.2% (TLC; human serum; 135 h, pH 7, 37 °C).
`CN(CCNc1ccc2ncc(-c3ccc(C(N)=O)cc3)n2n1)C(=O)OC(C)(C)C` has a drug concentration of 11 µM (mouse, SNL model, plasma; oral, 60 mg/kg, 120 min).
Under “degradation rate constant”, `Cc1onc(-c2ccccc2)c1-c1ccc(S(=O)(=O)Cl)cc1` is recorded as 1.9 h⁻¹ (chemical stability, HPLC-MS; borate buffered saline; pH 10.2, no N-acetyl-lysine).
For `COc1cc2ncnc(Oc3ccc(Nc4nccc5[nH]cc(-c6ccc(F)cc6)c(=O)c45)cc3F)c2cc1OC`, the half-life was 8.25 h (male beagle dog, plasma; intravenous, 2 mg/kg).
For `Cc1c(Cc2cncc(O[C@H](C)C(=O)O)c2)c2ccc(C(=O)N[C@@H](C)c3ccc(C(C)(C)C)cc3)cc2n1CC1CCC1`, the half-life was 0.727 h (metabolic stability; mouse, liver microsomes).
`CC(C)(O)c1ncc([S@](N)(=O)=NC(=O)Nc2c3c(cc4c2CCC4)CCC3)s1` — result for “share of subjects with TEAEs”: 78% (refers to: all system organ classes; healthy human subjects; oral, dose not given, 14 days, all active doses).
`CCCC[C@H](NC(=O)COCCOCCNC(=O)CN1CCN(CC(=O)O)CCN(CC(=O)O)CC1)C(=O)N[C@H]1CC(=O)NCCCC[C@@H](C(N)=O)NC(=O)[C@H](Cc2c[nH]c3ccccc23)NC(=O)[C@H](CCCNC(=N)N)NC(=O)[C@@H](Cc2ccccc2)NC(=O)[C@H](Cc2c[nH]cn2)NC1=O` [fluorine-18 labelled] gave a urinary excretion of 78.3 ± 3.19% (C57 mice, B16/F10 melanoma, urine; intravenous, 0.37 MBq, 1 h).
`O=[N][Fe]1([N]=O)[S](CCO)[Fe]([N]=O)([N]=O)[S]1CCO` has a clearance of 0.29 L/h (C57BL/6JNarl mouse, plasma; oral, dose not given).
`CN1CCC[C@]1(C)/C=C/S(=O)(=O)NC(=O)Nc1c2c(cc3c1CCC3)CC=C2`: “AUC(0-tau) accumulation ratio” 1.8 (human, plasma; oral, 100 mg twice daily of parent drug, metabolite of dosed drug; baseline: day 14 over day 1).
For `COC(=O)[C@@]1(C)C=C(C(=O)Nc2cccc(C(=O)Nc3ccc(Nc4nccc(-c5cccnc5)n4)c(C)c3)c2)C(=O)CC1`, the remaining compound was 6.6% and 4.5% (rat Wistar male, plasma; 1 µM, 60 min).
For `O=C(Nc1cnccc1-c1ccc([18F])nc1)c1ccnc(NC(=O)C2CC2)c1`, the median SUV was 7.94 (PET imaging; FVB/NJ mice, both sexes, liver; intravenous, 10 min, added: tariquidar 15 mg/kg iv, ≥2 h before).
`[2H]C1([2H])C[C@@H](C[C@@H](C#N)NC(=O)[C@@H]2[C@@H]3[C@H](CN2C(=O)[C@@H](NC(=O)C(F)(F)F)C(C)(C)C)C3(C)C)C(=O)N1` gave an intrinsic clearance of 10.6 mL/min/kg (human liver microsomes; scaled to liver).
With `CCCCN1C(=O)c2cccc3c(NCCCCCCN4CCOCC4)ccc(c23)C1=O` the absorption maximum was 444 nm (methanol).
With `N=C(N)NCCC[C@@H]1NC(=O)[C@H](CO)NC(=O)[C@@H](NC(=O)[C@H](CO)NC(=O)[C@H](CO)NC(=O)[C@H](Cc2c[nH]c3ccccc23)NC(=O)CNC(=O)[C@H](CO)NC(=O)[C@@H](N)Cc2c[nH]c3ccccc23)CSSC[C@@H](C(=O)NCC(=O)O)NC(=O)[C@H](CO)NC1=O` the clearance was 946 L/h (patients, plasma; intravenous, 10 mg/kg, thrice weekly, geometric mean).
`CSCc1cn(-c2cccc(C(=O)N3CCC(c4nc(-c5ccccc5)n[nH]4)CC3)c2)nn1` — result for “intrinsic clearance, scaled”: 4340 mL/min/kg (CD-1 mouse liver microsomes; pH 7.4, added: NADPH).
`Cc1cc(-c2ccc(C(=O)[C@@H]3CCCC[C@H]3C(=O)Nc3cnn4c3C(=O)NCC4)cc2)[nH]n1` — result for “radioactivity recovery per interval”: < 0.01% and 0.01% (human, urine; oral, 200 mg, 192-216 h; baseline: dose).
`Cc1ccc(OCC(=O)N(Cc2cccs2)c2ccn[nH]2)cc1` has a remaining compound of 97.7 (dog plasma; 750 ng/mL, 4 h, 37 °C, unit not given; baseline: time zero).
`CN1CCC[C@]1(C)/C=C/S(=O)(=O)NC(=O)Nc1c2c(cc3c1CC(O)C3)CCC2` (some centres unmarked): “AUC(0-tau) accumulation ratio” 1.7 (human, plasma; oral, 100 mg twice daily of parent drug, metabolite of dosed drug; baseline: day 14 over day 1).
The tumour-to-liver ratio of `COc1cccc(OC)c1-c1cc(C(=O)NC2(C(=O)O)C3CC4CC(C3)CC2C4)nn1-c1ccc(C(=O)N(C)CCCN(C)CCCN(C)C(=O)[C@H](CCCCNC(=O)[C@H](CC(C)C)NC(=O)C2OC2C(=O)O)NC(=O)CN2CCN(CC(=O)[O-])CCN(CC(=O)[O-])CCN(CC(=O)[O-])CC2)cc1C(C)C.[177Lu+3]` (mixture of isomers) is reported as 4.98 (mouse, HT-29 xenograft; 168 h post injection, biodistribution; baseline: tumour over liver uptake).

For quick reference, copied from above:
For `COC(=O)[C@@]1(C)C=C(C(=O)Nc2cccc(C(=O)Nc3ccc(Nc4nccc(-c5cccnc5)n4)c(C)c3)c2)C(=O)CC1`, the remaining compound was 6.6% and 4.5% (rat Wistar male, plasma; 1 µM, 60 min).
For `O=C(Nc1cnccc1-c1ccc([18F])nc1)c1ccnc(NC(=O)C2CC2)c1`, the median SUV was 7.94 (PET imaging; FVB/NJ mice, both sexes, liver; intravenous, 10 min, added: tariquidar 15 mg/kg iv, ≥2 h before).
`[2H]C1([2H])C[C@@H](C[C@@H](C#N)NC(=O)[C@@H]2[C@@H]3[C@H](CN2C(=O)[C@@H](NC(=O)C(F)(F)F)C(C)(C)C)C3(C)C)C(=O)N1` gave an intrinsic clearance of 10.6 mL/min/kg (human liver microsomes; scaled to liver).
With `CCCCN1C(=O)c2cccc3c(NCCCCCCN4CCOCC4)ccc(c23)C1=O` the absorption maximum was 444 nm (methanol).
